Assay results collected from several papers.
Numbered parts are unrelated; each lists some results of a single study. Positions count from the first letter of the parent shown.

Study 1 — method: protein-binding microarray; form: double-stranded DNA, one strand shown; sample: in vitro; tested at: 2540 nM top; setting: 60-bp whole probe; added: salmon DNA 0.4 mg/ml; baseline: random background probes; reading: higher = stronger binding; constant ends, left off below: GCCTAGCAC … GTCTTGATTCGCTTGACGCTGCTG
Target: Interferon regulatory factor 3, full length, phosphomimetic (IRF3, Homo sapiens, UniProt Q14653, residues 1-427, S386D/S396D/S398D/S402D/T404D/S405D)
Residues (chain): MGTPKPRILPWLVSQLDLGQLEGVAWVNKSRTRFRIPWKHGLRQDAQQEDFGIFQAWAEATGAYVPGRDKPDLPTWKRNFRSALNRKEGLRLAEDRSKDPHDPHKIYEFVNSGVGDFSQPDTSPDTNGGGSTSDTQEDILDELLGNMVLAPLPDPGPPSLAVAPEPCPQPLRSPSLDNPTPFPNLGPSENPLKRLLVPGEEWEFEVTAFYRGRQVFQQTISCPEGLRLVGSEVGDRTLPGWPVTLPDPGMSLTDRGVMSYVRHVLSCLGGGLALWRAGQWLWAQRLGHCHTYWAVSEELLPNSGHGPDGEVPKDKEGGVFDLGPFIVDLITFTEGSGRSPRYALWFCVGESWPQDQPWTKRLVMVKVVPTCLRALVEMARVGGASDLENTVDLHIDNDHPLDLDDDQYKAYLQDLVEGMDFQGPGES
`TTAGAACTGGGGCATCGATTAGTGCTA`: “fitted relative affinity” -0.989 z-score.
Under “fitted relative affinity”, `TTAGGTATCAGTTTCGATTAGTGCTAG` is recorded as 6.74 z-score.
Under “fitted relative affinity”, `TTAGGTCTCGGAGTGGGTTAGTGCTAG` is recorded as -0.462 z-score.
For `GACGGGCTGGACTATCGGGACGTGCTA`, “fitted relative affinity” read -0.966 z-score.
`TCAGTTTCTGGTTTATTACTGTGCTAG` — result for “fitted relative affinity”: 4.1 z-score.
`GACGGTTTTGGTTCCGGGACGTGCTAG` — result for “fitted relative affinity”: 4.45 z-score.
Under “fitted relative affinity”, `TTAGGTTCCGGTTTCGGTTCGTGCTAG` is recorded as 8.61 z-score.
Under “fitted relative affinity”, `TTAGGTCTCGGTTTAGGTTAGTGCTAG` is recorded as 1.88 z-score.
Under “fitted relative affinity”, `TTAGGTTTCGGGACTGGCTTAGTGCTA` is recorded as 4.37 z-score.
`TTAGATTTCAGTTCTGATTAGTGCTAG` — result for “fitted relative affinity”: 3.41 z-score.
Under “fitted relative affinity”, `TCAGAAATCAACTTTTTTACTGTGCTA` is recorded as 0.0923 z-score.
For `GACGGTATCGGTATCGGGACGTGCTAG`, “fitted relative affinity” read 4.86 z-score.
`TCAACTTTCCCCTTCCTACTGTGCTAG`: “fitted relative affinity” 3.11 z-score.

Study 2 — target: CCNB1, cyclin fold, Cln2 fusion (human); method: yeast growth competition, sequencing; sample: yeast; setting: strong parent motif; baseline: not given; reading: higher = stronger binding
Starting sequence: BRCA2 docking peptide (human); PSIKRNLLNEFDR; partner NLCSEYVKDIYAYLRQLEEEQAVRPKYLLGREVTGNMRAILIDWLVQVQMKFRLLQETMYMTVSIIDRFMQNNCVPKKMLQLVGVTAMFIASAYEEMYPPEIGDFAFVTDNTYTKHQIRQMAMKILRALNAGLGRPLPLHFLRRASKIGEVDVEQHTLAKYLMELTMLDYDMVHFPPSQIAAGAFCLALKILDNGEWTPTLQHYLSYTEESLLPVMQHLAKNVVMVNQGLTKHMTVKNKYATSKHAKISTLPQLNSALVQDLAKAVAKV
`PEIKRNLLNEFDR [S2E]`: “normalised enrichment score” 1.13.
`PSIWRNLLNEFDR [K4W]`: “normalised enrichment score” 0.0274.
`PSIKRNLLNEFPR [D12P]` — result for “normalised enrichment score”: 1.12.
`PSIKRNLRNEFDR [L8R]`: “normalised enrichment score” -1.02.
`PSIKRNLLNESDR [F11S]` — result for “normalised enrichment score”: -1.1.
`PMIKRNLLNEFDR [S2M]` — result for “normalised enrichment score”: 1.82.
For `PSIKRKLLNEFDR [N6K]`, “normalised enrichment score” read 0.745.
Under “normalised enrichment score”, `PSYKRNLLNEFDR [I3Y]` is recorded as 1.58.
Under “normalised enrichment score”, `PSIKRQLLNEFDR [N6Q]` is recorded as 0.673.
`PSIKRNLLTEFDR [N9T]`: “normalised enrichment score” 2.16.
`PSIKRNLLNEFDG [R13G]` — result for “normalised enrichment score”: 2.84.
Under “normalised enrichment score”, `PSIKRNLLNNFDR [E10N]` is recorded as 0.122.
Under “normalised enrichment score”, `KSIKRNLLNEFDR [P1K]` is recorded as 2.15.
`PSIKNNLLNEFDR [R5N]`: “normalised enrichment score” -0.18.
`PSIKRNLLNEFDI [R13I]`: “normalised enrichment score” 3.59.
`VSIKRNLLNEFDR [P1V]`: “normalised enrichment score” 2.41.

Study 3 — method: protein binding microarray; form: double-stranded DNA, one strand shown; sample: in vitro; tested at: not given; baseline: not given; reading: higher = stronger binding
Target: Histone acetyltransferase KAT6A, winged helix 2, GST fusion (KAT6A, Homo sapiens, UniProt Q92794, residues 85-181)
Setting: 8-mer, flanks averaged, mean of 2 arrays, mostly near background
Target sequence (chain): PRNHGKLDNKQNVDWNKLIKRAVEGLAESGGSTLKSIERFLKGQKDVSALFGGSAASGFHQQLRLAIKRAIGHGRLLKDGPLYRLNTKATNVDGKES
With `GCAGGGAC` the E-score was 0.0123.
`CCTGATGC` gave an E-score of 0.0775.
`ATAGGTAA` gave an E-score of -0.0984.
`GAAGCACA` gave an E-score of 0.12.
`AGTCCTTC` has an E-score of -0.172.
For `AAGTTTTC`, the E-score was 0.139.
With `GAGAATCA` the E-score was 0.0446.
`GGCTGGAC` has an E-score of 0.0215.
`ACACTGAA` has an E-score of 0.0874.
For `ATGAATCC`, the E-score was -0.109.
For `AGGTAGAC`, the E-score was -0.0997.
The E-score of `CCGTTCGA` is reported as 0.149.
For `ACCAACGG`, the E-score was 0.127.
For `AGACATAA`, the E-score was -0.135.
For `GCTGGGAC`, the E-score was -0.00531.
For `CTTCCGCA`, the E-score was 0.137.
`CCCCTGTA` gave an E-score of -0.081.
`ATGATGCA` gave an E-score of 0.00685.
`AACCCCTC` has an E-score of -0.238.
`AGTAGAAA` has an E-score of 0.107.
The E-score of `CAATACCA` is reported as -0.0757.
`TCCTTAGA` gave an E-score of -0.101.
With `CGGTTGCA` the E-score was 0.00895.
With `ACTCGATA` the E-score was -0.162.
For `AAAGGACA`, the E-score was -0.0675.

Study 4 — method: universal PBM; form: double-stranded DNA, one strand shown; sample: in vitro; tested at: not given; reading: higher = stronger binding
Target: Sal-like protein 4, full length isoform B (SALL4, Homo sapiens, UniProt Q9UJQ4-2, residues 1-616)
Setting: 8-mer, flanks averaged, mean of replicates
`AAACTTAA` gave an E-score of 0.258.
With `AATAACCC` the E-score was 0.155.
The E-score of `ACATTCTG` is reported as 0.105.
`CTGTGGTA` has an E-score of 0.0147.
With `ACGGCTTC` the E-score was -0.137.
For `GAGTGATC`, the E-score was -0.122.
The E-score of `ACGGGGAC` is reported as -0.223.
`AGAATCAG` gave an E-score of -0.0492.
The E-score of `CTATCGCA` is reported as -0.0394.
The E-score of `CCGGCATA` is reported as -0.142.
`AACCCCGC` gave an E-score of -0.19.
The E-score of `ACCTAACG` is reported as -0.0325.
With `TCCAGCAA` the E-score was 0.103.
`CCACAGCC` has an E-score of -0.299.
For `AGCTTAGC`, the E-score was -0.145.
`AGCGTCTC` has an E-score of -0.242.
With `TCTCCCCA` the E-score was -0.0584.
`AGCGTCCT` has an E-score of -0.087.
For `GTGGAAGA`, the E-score was 0.0684.
`TCGTATCA` has an E-score of 0.0865.
`ACCTAGAG` has an E-score of -0.00638.
For `AACGCACC`, the E-score was -0.125.
With `GACTTAGC` the E-score was -0.113.
`CAAAGGCA` has an E-score of -0.0625.
`ATTACAGG` gave an E-score of 0.299.

Some of these lines once more (study 3):
For `AGACATAA`, the E-score was -0.135.
For `GCTGGGAC`, the E-score was -0.00531.
For `CTTCCGCA`, the E-score was 0.137.
`CCCCTGTA` gave an E-score of -0.081.
`ATGATGCA` gave an E-score of 0.00685.
`AACCCCTC` has an E-score of -0.238.
`AGTAGAAA` has an E-score of 0.107.
The E-score of `CAATACCA` is reported as -0.0757.
`TCCTTAGA` gave an E-score of -0.101.
With `CGGTTGCA` the E-score was 0.00895.
With `ACTCGATA` the E-score was -0.162.
